Results collected from several papers.
Numbered parts are unrelated; each lists some results of a single study. Changes are numbered by the printed parent chain.

Set 1 — target: inorganic phosphate, free oxyanion; technique: microfluidic competitive inhibition; medium: in vitro, cell-free expressed; tested at: not given; reading: lower = stronger binding
Notes: derived from inhibition constants, unchanged parent 615000 nM
Starting sequence: PafA, mature enzyme, eGFP fusion (Elizabethkingia meningoseptica, UniProt Q9KJX5); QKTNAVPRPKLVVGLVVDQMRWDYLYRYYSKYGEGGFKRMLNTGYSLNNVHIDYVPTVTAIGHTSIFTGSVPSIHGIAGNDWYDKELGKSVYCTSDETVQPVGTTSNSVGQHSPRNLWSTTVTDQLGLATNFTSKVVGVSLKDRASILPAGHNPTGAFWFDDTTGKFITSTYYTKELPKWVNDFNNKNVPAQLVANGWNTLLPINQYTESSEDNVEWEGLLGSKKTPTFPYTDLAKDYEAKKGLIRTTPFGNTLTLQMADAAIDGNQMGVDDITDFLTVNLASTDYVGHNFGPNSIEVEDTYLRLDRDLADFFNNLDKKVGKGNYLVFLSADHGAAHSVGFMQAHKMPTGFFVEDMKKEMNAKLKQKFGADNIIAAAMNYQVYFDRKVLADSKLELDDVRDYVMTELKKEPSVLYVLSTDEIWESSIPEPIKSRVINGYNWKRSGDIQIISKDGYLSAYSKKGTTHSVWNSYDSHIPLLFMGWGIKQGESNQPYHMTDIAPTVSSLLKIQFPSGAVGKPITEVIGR
| Change | phosphate dissociation constant [µM] |
| --- | --- |
| D81V | 994 |
| I447G | 620 |
| Q19G | 1320 |
| L15V | 673 |
| H345G | 581 |
| D397G | 636 |
| A261G | 630 |

Set 2 — target: CCNA2, cyclin fold, Cln2 fusion (human); technique: yeast growth competition, sequencing; medium: yeast; notes: strong parent motif; reference: not given; reading: higher = stronger binding
Starting sequence: viral docking peptide; YKVKRRLVFGADD; partner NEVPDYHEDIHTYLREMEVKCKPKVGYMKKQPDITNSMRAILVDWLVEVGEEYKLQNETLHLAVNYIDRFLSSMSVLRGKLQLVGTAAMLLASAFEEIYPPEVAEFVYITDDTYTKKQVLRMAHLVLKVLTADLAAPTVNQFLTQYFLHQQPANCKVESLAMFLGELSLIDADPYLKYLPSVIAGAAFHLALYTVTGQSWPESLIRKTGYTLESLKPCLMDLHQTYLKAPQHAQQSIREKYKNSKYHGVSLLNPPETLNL
| Change | normalised enrichment score |
| --- | --- |
| YKVKRRYVFGADD [L7Y] | 0.368 |
| YKVKRRCVFGADD [L7C] | 0.502 |
| YKVKERLVFGADD [R5E] | 0.638 |
| YKVKRRQVFGADD [L7Q] | 0.0709 |
| YKVKRRMVFGADD [L7M] | 1.98 |
| YKVKRRLVHGADD [F9H] | 0.643 |
| YKVKRRLVMGADD [F9M] | 4.98 |
| YKVKRRLVFGPDD [A11P] | 6.67 |
| YKVKFRLVFGADD [R5F] | 1.05 |
| YKVKRRLNFGADD [V8N] | 6.65 |
| YNVKRRLVFGADD [K2N] | 6.21 |
| YKVKRRLAFGADD [V8A] | 6.35 |
| YKVKRTLVFGADD [R6T] | 5.28 |
| YKVKRRLVFGKDD [A11K] | 6.29 |
| YKVKRRLVFVADD [G10V] | 5.76 |
| YKVKRHLVFGADD [R6H] | 5.11 |
| YKVPRRLVFGADD [K4P] | 4.57 |

Set 3 — observed: binding; technique: phage display NGS; molecule type: peptide; reference: input library
Target: UDP-N-acetylglucosamine--peptide N-acetylglucosaminyltransferase 110 kDa subunit (OGT, Homo sapiens, UniProt O15294)
Chain of UniProt O15294 (whole entry, looked up): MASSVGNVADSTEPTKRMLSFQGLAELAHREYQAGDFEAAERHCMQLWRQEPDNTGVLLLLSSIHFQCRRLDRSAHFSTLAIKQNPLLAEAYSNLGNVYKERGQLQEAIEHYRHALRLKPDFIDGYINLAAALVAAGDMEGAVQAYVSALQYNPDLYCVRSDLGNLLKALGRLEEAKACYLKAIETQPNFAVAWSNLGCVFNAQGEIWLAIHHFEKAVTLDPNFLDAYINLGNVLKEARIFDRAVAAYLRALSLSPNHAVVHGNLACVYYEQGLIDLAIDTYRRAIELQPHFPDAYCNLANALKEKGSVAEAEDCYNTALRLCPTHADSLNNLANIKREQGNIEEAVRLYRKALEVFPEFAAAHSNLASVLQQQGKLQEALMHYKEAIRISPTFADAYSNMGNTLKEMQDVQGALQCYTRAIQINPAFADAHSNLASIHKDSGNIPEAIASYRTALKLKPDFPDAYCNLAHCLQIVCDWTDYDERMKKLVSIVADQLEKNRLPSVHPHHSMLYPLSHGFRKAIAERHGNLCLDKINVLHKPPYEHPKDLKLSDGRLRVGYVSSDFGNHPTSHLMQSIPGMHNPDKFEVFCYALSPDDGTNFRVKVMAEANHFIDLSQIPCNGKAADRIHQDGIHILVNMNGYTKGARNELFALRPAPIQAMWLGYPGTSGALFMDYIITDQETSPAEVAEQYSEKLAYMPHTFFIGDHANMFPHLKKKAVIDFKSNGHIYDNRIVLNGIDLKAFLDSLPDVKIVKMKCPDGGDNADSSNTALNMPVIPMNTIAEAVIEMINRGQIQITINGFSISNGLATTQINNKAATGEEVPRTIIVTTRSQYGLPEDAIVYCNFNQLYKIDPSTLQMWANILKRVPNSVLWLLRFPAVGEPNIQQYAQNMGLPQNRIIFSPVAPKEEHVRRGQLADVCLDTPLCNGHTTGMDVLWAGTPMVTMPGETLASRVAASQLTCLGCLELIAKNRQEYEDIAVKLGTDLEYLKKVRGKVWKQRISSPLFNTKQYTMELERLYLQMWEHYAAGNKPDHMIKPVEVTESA
| Molecule | minimum log2 enrichment ratio |
| --- | --- |
| TLSPQHNHEHNQPHH | 2.81 |
| HPTWPVEHHHDKIYS | 2.82 |
| ATRETEPAYQIVYTK | 1.7 |
| HIHLHAQENPKVPYH | 2.2 |
| SWAPWHIASQRHQDF | 1.76 |
| QEGTMPIYQIIMKYD | 1.75 |
| FPHHPQDHMRLNVFT | 1.64 |
| IHYEPQYPITYKTYT | 1.7 |

Set 4 — technique: aptamer microarray, sandwich; molecule type: DNA with 2'F-ANA; medium: in vitro; tested at: 200 nM; with: Cy3 exosite-II aptamer, 400 nM; reading: higher = stronger binding; oligonucleotide: GGTTGGTGTGGTTGG
Target: Prothrombin, mature alpha-thrombin (F2, Homo sapiens, UniProt P00734)
Notes: whole 15-mer aptamer, many near background
| Modification | mean fluorescence intensity [a.u.] |
| --- | --- |
| 2'F-ANA at 3 6 7 9 10 11 13 14 15 | 323 |
| 2'F-ANA at 1 3 4 6 7 13 15 | 148 |
| 2'F-ANA at 1 3 4 7 8 10 11 12 13 14 15 | 53.8 |
| 2'F-ANA at 4 6 8 9 11 12 | 445 |
| 2'F-ANA at 1 3 4 5 8 10 11 12 | 53.7 |
| 2'F-ANA at 2 3 4 5 6 7 14 | 53.5 |
| 2'F-ANA at 3 5 7 8 11 13 14 15 | 79.7 |
| 2'F-ANA at 1 4 6 9 11 15 | 85.7 |

Excerpt of the above (set 2):
| Change | normalised enrichment score |
| --- | --- |
| YNVKRRLVFGADD [K2N] | 6.21 |
| YKVKRRLAFGADD [V8A] | 6.35 |
| YKVKRTLVFGADD [R6T] | 5.28 |
| YKVKRRLVFGKDD [A11K] | 6.29 |
